{"data": "Measurements collected from several papers", "note": "Each numbered part is a random draw from the data of one study; scales do not carry over between parts."}
{"data": "Study 1", "target": "Histone acetyltransferase KAT6A, both winged helices, GST fusion (KAT6A, Homo sapiens, UniProt Q92794, residues 1-181)", "method": "protein binding microarray", "molecule type": "double-stranded DNA, one strand shown", "medium": "in vitro", "concentration": "not given", "notes": "8-mer, flanks averaged, mean of 2 arrays, mostly near background", "relative to": "not given", "direction": "higher = stronger binding", "Residues (chain)": "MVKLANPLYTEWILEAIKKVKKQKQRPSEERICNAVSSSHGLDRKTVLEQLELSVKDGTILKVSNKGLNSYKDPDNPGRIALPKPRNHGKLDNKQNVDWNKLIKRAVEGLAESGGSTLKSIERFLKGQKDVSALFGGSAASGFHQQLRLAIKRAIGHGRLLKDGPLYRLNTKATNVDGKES"}
{"Oligonucleotide": "TCCGACAA", "E-score": 0.122}
{"Oligonucleotide": "CCGTACAA", "E-score": 0.167}
{"Oligonucleotide": "AACTACCC", "E-score": -0.0716}
{"Oligonucleotide": "ACCCGGGT", "E-score": 0.371}
{"Oligonucleotide": "CCAGGAAA", "E-score": -0.27}
{"data": "Study 2", "target": "Fragile X messenger ribonucleoprotein 1, C-terminal low-complexity region (Fmr1, Mus musculus, UniProt P35922)", "method": "RNA Bind-n-Seq", "molecule type": "RNA", "medium": "in vitro", "concentration": "200 nM", "notes": "whole 134-nt RNA, ends assumed", "together with": "150 mM LiCl", "relative to": "input library", "direction": "higher = stronger binding", "each molecule": "7-deaza-guanosine replaces G", "all sequences stand within": "GGGAGUUCUACAGUCCGACGAUC … UGGAAUUCUCGGGUGUCAAGG"}
{"Oligonucleotide": "UUGAGAAAAGCACCCAUAAUUUGCUACUUGAGGAUUUUAUUCCCUGGAUUCUCUGGAUGCUCAUUGCAUGAAAAGUGGAAAAGUUUAGAU", "log2 enrichment": -1.49}
{"Oligonucleotide": "GUCCUGUGCUACACAUCGUAUGUACCGAAUCGGGGCCCCCGGCCCCCGGCCCCCGGGGAAAGUAUUAUGUUACGCCGUUCGGAUCUGCAC", "log2 enrichment": -1.48}
{"Oligonucleotide": "AGUCCUGUGCUACACAUCGUAUGUACCGAAUCGGGGAAAAAAAGGGGUGGGGAGGGGAAAGUAUUAUGUUACGCCGUUCGGAUCUGCACU", "log2 enrichment": -0.271}
{"Oligonucleotide": "GCAGGAAGUAAAAACAAAUGGAAAUGCUUCGGAUAGUGGCAGGGGUGGGGGUUGCUAAGGAAAGGGUGGGAUGGGAGUGGAUAAAGAGUU", "log2 enrichment": 1.44}
{"Oligonucleotide": "UCAAGUCCUGUGCUACACAUCGUAUGUACCGAAUCGGAAAGGAAAAAAAGGUGGAAAGUAUUAUGUUACGCCGUUCGGAUCUGCACUUCC", "log2 enrichment": -0.926}
{"data": "Study 3", "target": "PABPC1L2, full length, GST fusion (mouse, UniProt A0ABA7IW68)", "method": "RNAcompete", "molecule type": "RNA", "medium": "in vitro", "concentration": "20 nM", "notes": "7-mer, probes averaged, single round", "relative to": "mean of 7-mers", "direction": "higher = stronger binding", "Construct (chain)": "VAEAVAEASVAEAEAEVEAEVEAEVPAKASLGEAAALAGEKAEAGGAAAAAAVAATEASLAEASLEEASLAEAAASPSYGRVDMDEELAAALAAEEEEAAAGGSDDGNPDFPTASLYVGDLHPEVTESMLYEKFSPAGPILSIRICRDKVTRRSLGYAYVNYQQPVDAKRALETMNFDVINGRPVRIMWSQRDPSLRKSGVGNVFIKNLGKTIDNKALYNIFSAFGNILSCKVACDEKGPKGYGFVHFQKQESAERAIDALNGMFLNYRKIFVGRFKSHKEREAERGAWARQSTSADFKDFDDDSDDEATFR"}
{"Oligonucleotide": "UGCGGAU", "7-mer Z-score": -0.0591}
{"Oligonucleotide": "UCUCGCA", "7-mer Z-score": -0.237}
{"Oligonucleotide": "UCGAUCG", "7-mer Z-score": -0.184}
{"Oligonucleotide": "GGUGGUG", "7-mer Z-score": -0.0174}
{"Oligonucleotide": "UUCGCUC", "7-mer Z-score": -0.434}
{"Oligonucleotide": "AUAGAAC", "7-mer Z-score": 0.187}
{"Oligonucleotide": "AUUAUCA", "7-mer Z-score": -0.0772}
{"data": "Mixed results"}
{"Molecule": "PhoQ, residues 284 288 289 292 302 303 SNGLAW", "target": "PhoP, residues 12 14 15 18 19 YHFSH (Escherichia coli, UniProt P23836)", "test": "Sort-seq, measured: YFP reporter", "test system": "E. coli", "conditions": "PhoQ-PhoP variant library, together with: 10 µM Mg2+", "scale": "relative to: high Mg2+ state, higher = stronger signaling", "measurement": "fold induction", "result": 4.05}
{"note": "A few entries again (study 1):"}
{"Oligonucleotide": "AACTACCC", "E-score": -0.0716}
